Experimental data gathered from unrelated publications.
Numbers after ± are the reported error.
OPRL1: Nociceptin receptor (OPRL1, Homo sapiens, UniProt P41146)
PKG: cGMP-dependent protein kinase (PKG, Plasmodium falciparum, UniProt Q8I719)
G protein-coupled receptor 88: G protein-coupled receptor 88 (Homo sapiens, UniProt Q9GZN0)

Sequences of proteins named here, by UniProt entry; tags and fusion partners are left off. A line that says so, or that is headed by a name, gives the form on record, which may keep a tag or linker. Residues count along the entry.
UniProt P41146, whole entry: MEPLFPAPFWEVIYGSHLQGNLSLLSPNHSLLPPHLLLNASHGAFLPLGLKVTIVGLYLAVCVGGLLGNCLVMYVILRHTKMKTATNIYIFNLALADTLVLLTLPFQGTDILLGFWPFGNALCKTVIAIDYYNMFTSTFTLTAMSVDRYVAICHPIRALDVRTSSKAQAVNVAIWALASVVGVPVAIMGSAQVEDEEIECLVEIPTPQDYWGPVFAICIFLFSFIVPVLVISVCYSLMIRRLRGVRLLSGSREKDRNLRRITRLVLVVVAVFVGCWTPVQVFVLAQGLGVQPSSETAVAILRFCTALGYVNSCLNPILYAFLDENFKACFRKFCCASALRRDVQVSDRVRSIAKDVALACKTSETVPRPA
UniProt Q8I719, whole entry: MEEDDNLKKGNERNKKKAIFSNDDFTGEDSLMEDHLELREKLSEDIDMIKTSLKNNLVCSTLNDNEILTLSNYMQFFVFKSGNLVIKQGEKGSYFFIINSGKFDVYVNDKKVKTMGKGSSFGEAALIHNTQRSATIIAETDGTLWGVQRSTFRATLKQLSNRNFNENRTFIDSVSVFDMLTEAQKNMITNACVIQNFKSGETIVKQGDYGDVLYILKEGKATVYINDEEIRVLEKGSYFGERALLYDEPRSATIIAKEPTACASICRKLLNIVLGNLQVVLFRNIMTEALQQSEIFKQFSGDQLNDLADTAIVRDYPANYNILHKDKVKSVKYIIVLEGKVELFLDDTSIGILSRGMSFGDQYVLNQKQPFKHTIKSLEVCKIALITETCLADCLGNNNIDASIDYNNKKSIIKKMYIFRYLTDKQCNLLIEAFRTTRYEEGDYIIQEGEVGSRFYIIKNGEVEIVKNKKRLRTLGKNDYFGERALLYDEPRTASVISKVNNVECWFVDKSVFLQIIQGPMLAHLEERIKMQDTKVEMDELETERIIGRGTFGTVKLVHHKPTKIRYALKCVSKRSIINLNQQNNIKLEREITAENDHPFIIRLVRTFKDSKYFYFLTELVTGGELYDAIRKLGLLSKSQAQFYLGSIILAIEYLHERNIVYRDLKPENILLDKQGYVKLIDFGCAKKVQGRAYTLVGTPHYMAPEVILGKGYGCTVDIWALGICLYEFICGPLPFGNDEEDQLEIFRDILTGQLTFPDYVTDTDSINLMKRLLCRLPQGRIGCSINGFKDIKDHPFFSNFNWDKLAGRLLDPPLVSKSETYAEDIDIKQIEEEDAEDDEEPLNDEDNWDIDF
UniProt Q9GZN0, whole entry: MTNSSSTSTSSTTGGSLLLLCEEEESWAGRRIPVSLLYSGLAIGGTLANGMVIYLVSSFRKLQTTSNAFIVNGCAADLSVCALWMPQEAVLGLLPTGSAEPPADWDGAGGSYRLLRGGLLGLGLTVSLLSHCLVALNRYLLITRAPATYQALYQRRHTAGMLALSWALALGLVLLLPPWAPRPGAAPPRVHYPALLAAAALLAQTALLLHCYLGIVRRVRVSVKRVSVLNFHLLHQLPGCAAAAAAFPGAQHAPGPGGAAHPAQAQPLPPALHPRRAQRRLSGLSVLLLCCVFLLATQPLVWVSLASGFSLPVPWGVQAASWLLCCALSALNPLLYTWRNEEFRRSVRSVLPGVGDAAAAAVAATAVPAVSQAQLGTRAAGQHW
UniProt P08510, 1-655 with tags or gaps DEL6-46: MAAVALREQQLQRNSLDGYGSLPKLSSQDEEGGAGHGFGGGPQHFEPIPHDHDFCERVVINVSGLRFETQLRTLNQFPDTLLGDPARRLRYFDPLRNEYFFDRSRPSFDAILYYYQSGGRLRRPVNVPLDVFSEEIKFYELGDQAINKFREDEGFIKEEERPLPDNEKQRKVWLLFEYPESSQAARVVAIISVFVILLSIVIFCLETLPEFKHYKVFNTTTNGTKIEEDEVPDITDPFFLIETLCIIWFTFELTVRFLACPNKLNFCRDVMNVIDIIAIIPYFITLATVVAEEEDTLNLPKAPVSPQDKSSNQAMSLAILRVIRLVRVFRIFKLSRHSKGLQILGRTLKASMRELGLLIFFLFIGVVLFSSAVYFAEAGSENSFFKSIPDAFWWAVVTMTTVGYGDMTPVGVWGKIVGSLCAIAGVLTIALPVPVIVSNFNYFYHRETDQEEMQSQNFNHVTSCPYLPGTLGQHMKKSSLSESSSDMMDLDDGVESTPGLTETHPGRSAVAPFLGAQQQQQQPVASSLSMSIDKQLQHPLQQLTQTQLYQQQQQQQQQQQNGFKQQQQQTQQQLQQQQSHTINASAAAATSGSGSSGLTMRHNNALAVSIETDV
UniProt P37136, 32-574 limits assumed: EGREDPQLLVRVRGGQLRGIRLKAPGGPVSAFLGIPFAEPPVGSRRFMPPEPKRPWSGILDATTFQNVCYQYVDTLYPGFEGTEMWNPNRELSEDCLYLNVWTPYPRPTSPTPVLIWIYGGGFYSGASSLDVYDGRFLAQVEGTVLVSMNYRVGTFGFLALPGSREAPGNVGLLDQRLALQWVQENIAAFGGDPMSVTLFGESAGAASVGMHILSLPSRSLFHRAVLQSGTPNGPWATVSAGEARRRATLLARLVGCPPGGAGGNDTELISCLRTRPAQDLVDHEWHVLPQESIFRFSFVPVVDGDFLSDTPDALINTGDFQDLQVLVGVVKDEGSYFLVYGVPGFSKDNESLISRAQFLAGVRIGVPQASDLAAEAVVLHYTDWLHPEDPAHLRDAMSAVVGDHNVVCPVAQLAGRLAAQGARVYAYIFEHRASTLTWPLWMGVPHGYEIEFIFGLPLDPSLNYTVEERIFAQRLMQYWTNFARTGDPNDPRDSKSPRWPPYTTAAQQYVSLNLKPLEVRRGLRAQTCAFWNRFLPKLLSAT
UniProt Q16881, 151-649 limits assumed: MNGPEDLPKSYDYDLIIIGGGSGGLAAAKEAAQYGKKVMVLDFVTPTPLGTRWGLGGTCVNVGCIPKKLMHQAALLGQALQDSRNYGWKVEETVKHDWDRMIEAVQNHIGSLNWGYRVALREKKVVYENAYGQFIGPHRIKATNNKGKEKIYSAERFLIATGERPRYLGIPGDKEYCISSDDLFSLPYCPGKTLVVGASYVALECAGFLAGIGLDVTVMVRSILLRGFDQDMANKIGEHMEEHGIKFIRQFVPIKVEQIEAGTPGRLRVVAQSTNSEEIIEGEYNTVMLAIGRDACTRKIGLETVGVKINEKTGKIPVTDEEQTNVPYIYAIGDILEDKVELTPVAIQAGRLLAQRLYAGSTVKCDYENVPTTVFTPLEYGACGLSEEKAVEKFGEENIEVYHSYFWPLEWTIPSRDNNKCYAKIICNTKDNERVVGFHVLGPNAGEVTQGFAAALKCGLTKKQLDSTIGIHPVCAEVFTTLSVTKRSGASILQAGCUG
UniProt P59768, 2-68 partner limits assumed: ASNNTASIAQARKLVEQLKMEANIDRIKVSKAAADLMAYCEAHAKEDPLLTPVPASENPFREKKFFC
UniProt P63096, 2-354 partner limits assumed: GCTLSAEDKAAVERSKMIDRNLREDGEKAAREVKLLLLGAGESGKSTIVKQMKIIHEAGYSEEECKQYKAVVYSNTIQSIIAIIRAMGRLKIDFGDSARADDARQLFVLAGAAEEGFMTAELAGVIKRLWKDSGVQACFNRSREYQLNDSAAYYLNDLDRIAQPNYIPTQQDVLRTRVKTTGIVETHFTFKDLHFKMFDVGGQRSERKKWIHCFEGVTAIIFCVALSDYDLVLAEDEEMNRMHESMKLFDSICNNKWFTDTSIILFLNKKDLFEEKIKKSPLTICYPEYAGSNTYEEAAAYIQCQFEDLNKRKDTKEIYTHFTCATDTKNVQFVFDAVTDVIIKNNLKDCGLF
UniProt P62873, whole entry partner: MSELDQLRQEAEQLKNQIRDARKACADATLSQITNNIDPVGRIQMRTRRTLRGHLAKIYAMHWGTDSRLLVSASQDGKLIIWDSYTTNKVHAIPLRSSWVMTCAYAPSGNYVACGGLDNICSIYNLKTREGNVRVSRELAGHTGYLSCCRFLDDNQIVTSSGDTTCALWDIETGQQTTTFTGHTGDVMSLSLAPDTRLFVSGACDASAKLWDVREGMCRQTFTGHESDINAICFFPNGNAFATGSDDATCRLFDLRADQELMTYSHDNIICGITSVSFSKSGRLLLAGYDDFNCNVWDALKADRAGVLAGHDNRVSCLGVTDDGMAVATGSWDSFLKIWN

The intrinsic activity of `O=C1Cc2ccccc2N1C1CCN([C@@H]2CC[C@H]3CCCc4cccc2c43)CC1` is reported as 1.01 (OPRL1; calcium mobilization; CHO with Gαqi5; concentration not given, unit not given; reference: compound over N/OFQ Emax).
The Kd of `CC[C@H](C)[C@@H]1NC(=O)[C@H](CCCNC(=N)N)NC(=O)[C@@H](N)CSSC[C@@H]2NC(=O)[C@@H]3CSSC[C@@H](C(=O)N[C@H](C(=O)O)C(C)C)NC(=O)[C@H](CCCCN)NC(=O)[C@H](CC(N)=O)NC(=O)[C@H](Cc4ccccc4)NC(=O)[C@H](CCCNC(=N)N)NC(=O)[C@H](CC(N)=O)NC(=O)[C@H](CSSC[C@H](NC(=O)[C@H](CCCCN)NC(=O)[C@H](CCC(N)=O)NC(=O)[C@H](CC(N)=O)NC(=O)[C@@H]4C[C@@H](O)CN4C1=O)C(=O)N[C@@H](Cc1ccccc1)C(=O)N[C@@H](CCC(N)=O)C(=O)N[C@@H](Cc1c[nH]cn1)C(=O)N[C@@H](CC(C)C)C(=O)N[C@@H](CC(=O)O)C(=O)N[C@@H](CC(=O)O)C(=O)N3)NC(=O)[C@H](CCCCN)NC(=O)[C@H](CCCNC(=N)N)NC(=O)[C@H](CO)NC2=O` is reported as 0.3 ± 0.04 µM (Sh (Drosophila melanogaster, UniProt P08510, del6-46); potassium current, patch clamp, pooled data; zero voltage).
The Ki of `CCN(CC)Cc1onc(-c2cccc(Cl)c2)c1-c1ccnc(N[C@@H]2CCN(C(=O)c3ccn(C)n3)C2)n1` is reported as 0.0024 ± 0.001 µM (PKG; kinase activity, ATP-competitive inhibitor, IMAP kinetics).
With `CC(C)[C@H]1CC[C@@H](N2CCC3(CC2)C(=O)NCN3c2ccccc2)CC1` the potency ratio was 28 (OPRL1; G protein interaction, BRET; HEK293 membranes; reference: compound EC50 over N/OFQ EC50).
`CCCN(C)Cc1onc(-c2cccc(Cl)c2)c1-c1ccnc(N[C@@H]2CCN(C(=O)c3ccn(C)n3)C2)n1` has an IC50 of 0.425 ± 0.133 µM (PKG; kinase activity, inhibitor, IMAP; with: ATP 10 µM, FAM-PKAtide).
`CC[C@H](C)[C@H](NC(=O)[C@H](C)NC(=O)[C@H](CCC(=O)O)NC(=O)[C@H](CCC(=O)O)NC(=O)[C@H](CC(C)C)NC(=O)[C@H](CCCCN)NC(=O)[C@H](CCCCN)NC(=O)[C@H](CCSC)NC(=O)[C@H](CCC(=O)O)NC(=O)[C@H](Cc1ccc(O)cc1)NC(=O)[C@H](CCC(=O)O)NC(=O)[C@H](CC(C)C)NC(=O)[C@H](CC(=O)O)NC(=O)[C@H](CC(C)C)NC(=O)[C@H](Cc1ccccc1)NC(=O)[C@@H](NC(=O)[C@@H](NC(=O)[C@H](CC(N)=O)NC(=O)[C@@H](NC(=O)[C@H](CCC(N)=O)NC(=O)[C@H](CC(=O)O)NC(=O)[C@H](CC(C)C)NC(=O)[C@@H](N)CO)[C@@H](C)CC)C(C)C)[C@@H](C)O)C(=O)N[C@@H](CCCCN)C(=O)N[C@@H](CCCCN)C(=O)N[C@@H](CC(C)C)C(=O)N[C@@H](CCC(=O)O)C(=O)N[C@@H](CCC(=O)O)C(=O)N[C@@H](CO)C(=O)N[C@@H](Cc1ccc(O)cc1)C(=O)N[C@H](C(=O)N[C@@H](CC(=O)O)C(=O)N[C@@H](CC(C)C)C(=O)N[C@@H](CCCCN)C(=O)N[C@@H](CCC(=O)O)C(=O)N[C@@H](CC(C)C)C(=O)O)[C@@H](C)CC` has an IC50 of 1.36 µM (SARS-CoV-2 Gamma pseudovirus; pseudovirus infection, inhibitor, luciferase; Caco-2; 24 h, dual mutations).
`CCOP(=O)(OCC)ON1C(=O)c2cccc3cccc(c23)C1=O` gave an IC50 of 0.011 µM (Ache (Rattus norvegicus, UniProt P37136); enzyme activity, inhibitor, discontinuous Ellman; rat, postnatal day 12, rat heart homogenate; 15 min, 37 °C).
For `CS(=O)(=O)Cc1onc(-c2cccc(Cl)c2)c1-c1ccnc(N[C@@H]2CCN(C(=O)c3nccs3)C2)n1`, the Ki was 0.0013 ± 0.0004 µM (PKG; kinase activity, ATP-competitive inhibitor, IMAP kinetics).
`Oc1nc(/C=C/c2ccc(Cl)cc2Cl)cc(C(F)(F)F)n1` gave an IC50 of > 100 µM (Replicase polyprotein 1ab, nsp16 with nsp10 (rep, Severe acute respiratory syndrome coronavirus 2, UniProt P0DTD1); enzyme activity; 0 h preincubation).
With `CC[C@H](C)[C@H](N)CN(C(=O)C1CC1c1ccccn1)c1ccc(C2CCCCC2)cc1` (relative stereo) the EC50 was 0.283 µM (G protein-coupled receptor 88; agonist).
With `CC[C@H](C)[C@H](NC(=O)[C@H](C)NC(=O)[C@H](CCC(=O)O)NC(=O)[C@H](CCC(=O)O)NC(=O)[C@H](CC(C)C)NC(=O)[C@H](CCCCN)NC(=O)[C@H](CCCCN)NC(=O)[C@H](CCSC)NC(=O)[C@H](CCC(=O)O)NC(=O)[C@H](Cc1ccc(O)cc1)NC(=O)[C@H](CCC(=O)O)NC(=O)[C@H](CC(C)C)NC(=O)[C@H](CC(=O)O)NC(=O)[C@H](CC(C)C)NC(=O)[C@H](Cc1ccccc1)NC(=O)[C@H](Cc1ccc(O)cc1)NC(=O)[C@@H](NC(=O)[C@H](CC(N)=O)NC(=O)[C@@H](NC(=O)[C@H](CCC(N)=O)NC(=O)[C@H](CC(=O)O)NC(=O)[C@H](CC(C)C)NC(=O)[C@@H](N)CO)[C@@H](C)CC)C(C)C)C(=O)N[C@@H](CCCCN)C(=O)N[C@@H](CCCCN)C(=O)N[C@@H](CC(C)C)C(=O)N[C@@H](CCC(=O)O)C(=O)N[C@@H](CCC(=O)O)C(=O)N[C@H](C(=O)N[C@@H](Cc1ccc(O)cc1)C(=O)N[C@H](C(=O)N[C@@H](CC(=O)O)C(=O)N[C@@H](CC(C)C)C(=O)N[C@@H](CCCCN)C(=O)N[C@@H](CCC(=O)O)C(=O)N[C@@H](CC(C)C)C(=O)O)[C@@H](C)CC)[C@@H](C)O` the IC50 was 1.48 µM (SARS-CoV-2 Gamma pseudovirus; pseudovirus infection, inhibitor, luciferase; Caco-2; 24 h, dual mutations).
`CC(=O)Oc1ccc(CON2C(=O)CCC2=O)cc1` has a Ki of 4.2 ± 0.3 µM (TXNRD1 (Homo sapiens, UniProt Q16881); enzyme activity, inhibitor, DTNB reduction, two-step kinetics).
For `CCCCCCc1ccc(N(C[C@@H](N)[C@@H](C)CC)C(=O)C2CC2c2ccccn2)cc1` (relative stereo), the EC50 was 0.421 µM (G protein-coupled receptor 88; agonist).

A few entries again:
`CC[C@H](C)[C@H](NC(=O)[C@H](C)NC(=O)[C@H](CCC(=O)O)NC(=O)[C@H](CCC(=O)O)NC(=O)[C@H](CC(C)C)NC(=O)[C@H](CCCCN)NC(=O)[C@H](CCCCN)NC(=O)[C@H](CCSC)NC(=O)[C@H](CCC(=O)O)NC(=O)[C@H](Cc1ccc(O)cc1)NC(=O)[C@H](CCC(=O)O)NC(=O)[C@H](CC(C)C)NC(=O)[C@H](CC(=O)O)NC(=O)[C@H](CC(C)C)NC(=O)[C@H](Cc1ccccc1)NC(=O)[C@@H](NC(=O)[C@@H](NC(=O)[C@H](CC(N)=O)NC(=O)[C@@H](NC(=O)[C@H](CCC(N)=O)NC(=O)[C@H](CC(=O)O)NC(=O)[C@H](CC(C)C)NC(=O)[C@@H](N)CO)[C@@H](C)CC)C(C)C)[C@@H](C)O)C(=O)N[C@@H](CCCCN)C(=O)N[C@@H](CCCCN)C(=O)N[C@@H](CC(C)C)C(=O)N[C@@H](CCC(=O)O)C(=O)N[C@@H](CCC(=O)O)C(=O)N[C@@H](CO)C(=O)N[C@@H](Cc1ccc(O)cc1)C(=O)N[C@H](C(=O)N[C@@H](CC(=O)O)C(=O)N[C@@H](CC(C)C)C(=O)N[C@@H](CCCCN)C(=O)N[C@@H](CCC(=O)O)C(=O)N[C@@H](CC(C)C)C(=O)O)[C@@H](C)CC` has an IC50 of 1.36 µM (SARS-CoV-2 Gamma pseudovirus; pseudovirus infection, inhibitor, luciferase; Caco-2; 24 h, dual mutations).
`CCOP(=O)(OCC)ON1C(=O)c2cccc3cccc(c23)C1=O` gave an IC50 of 0.011 µM (Ache (Rattus norvegicus, UniProt P37136); enzyme activity, inhibitor, discontinuous Ellman; rat, postnatal day 12, rat heart homogenate; 15 min, 37 °C).
